Measured values pooled from the literature.
Compare with care: the assays were run in different laboratories. Several values in a cell are separate wells, animals, samples, runs or records. ± marks the error that the study gave.
Organism: SARS-CoV-2

For `Oc1ccc(CCCCCCCCC(O)c2c(O)cccc2O)cc1O` (stereo not shown), the selectivity index was 2.4 (HEK293T ACE2, Gamma P.1; relative to: CC50 over EC50).
For `O=C(NC1CCN(c2ncnc3[nH]cnc23)CC1)c1cccc(NS(=O)(=O)c2ccc(C(F)(F)F)cc2)c1`, the EC50 was 64 nM (viral replication; A549-ACE2, Omicron variant; 24 h).
`CC(=O)Oc1ccc(CCCCCCCCC(=O)c2c(OC(C)=O)cccc2OC(C)=O)cc1OC(C)=O` has a selectivity index of 4.3 (HEK293T ACE2, Gamma P.1; relative to: CC50 over EC50).
Under “pseudovirus entry inhibition”, `CC(=O)c1cccc(-c2nc(Nc3ccccc3)nc(N3CCOCC3)n2)c1` is recorded as “inhibited” (D614G spike pseudovirus; concentration not given).
For `CC(C)CC(C(=O)N1CC2(CC1C#N)C(=O)Nc1ccccc12)N(C)C(=O)c1cc2c(F)cc(F)c(F)c2[nH]1` (stereo not shown), the inhibition was 9.09% (viral replication; VeroE6/TMPRSS2, Omicron variants; 0.003704 µM).
For `CC(C)C(=O)OC[C@H]1O[C@@](C#N)(n2ccc(N)nc2=O)[C@H](O)[C@@H]1O`, the EC90 was 200 ± 50 nM (viral replication; Calu-3, Beta).
The IC100 of `O=c1[nH]cnc2c(C3NC(COP(=O)(O)OP(=O)(O)OP(=O)(O)O)C(O)C3O)c[nH]c12` (stereo not shown) is reported as 1.02 ± 0.04 µM (cytopathic effect; Vero C1008, Omicron BA.1; 48 h).
For `O=C(CCCCCCc1ccc(O)c(O)c1)c1c(O)cccc1O`, the selectivity index was 2.2 (HEK293T ACE2, Alpha B.1.1.7; relative to: CC50 over EC50).
`COc1ccc2ccc(C(=O)Nc3ccc(CN)cc3)c(O)c2c1` gave an inhibition of 49% (viral infection; D614G; 10 µM).
For `CC1OC(OC2C(OC(=O)C34CCC(C)(C)CC3C3=CCC5C6(C)CCC(OC7OC(CO)C(O)C(O)C7O)C(C)(C)C6CCC5(C)C3(C)CC4O)OCC(O)C2O)C(O)C(O)C1OC1OCC(O)C(OC2OCC(O)C(OC3OCC(O)C(O)C3O)C2O)C1O` (stereo not shown), the IC50 was 610 nM (pseudovirus entry; H1299 ACE2/TMPRSS2+).
`O=C(CCCCCCCCCCc1ccc(O)c(O)c1)c1c(O)cccc1O` has a selectivity index of 2.6 (HEK293T ACE2, Delta B.1.617.2; relative to: CC50 over EC50).
For `CCn1ccc(-c2cc(-c3cnn(C)c3)cc([C@@H](C)NC(=O)c3cc(OCCN(C)C)ccc3C)c2)n1`, “Q269H mutation frequency” read 0.44% and 1.38% and 0.41% and 0% (WA1 lineage passage 11; concentration not given).
`COc1ccc2c(O)c(C(=O)Nc3ccc(CN)cc3)ccc2c1` has an inhibition of greater than 56% (viral infection; D614G; 10 µM).

Repeated from above:
The IC100 of `O=c1[nH]cnc2c(C3NC(COP(=O)(O)OP(=O)(O)OP(=O)(O)O)C(O)C3O)c[nH]c12` (stereo not shown) is reported as 1.02 ± 0.04 µM (cytopathic effect; Vero C1008, Omicron BA.1; 48 h).
For `O=C(CCCCCCc1ccc(O)c(O)c1)c1c(O)cccc1O`, the selectivity index was 2.2 (HEK293T ACE2, Alpha B.1.1.7; relative to: CC50 over EC50).
